# Results of several laboratories.
# Parts stem from different laboratories: compare values within a part only. Substitutions count along the parent as printed.

# Series 1
# Target: UBE2W UBC core domain (UniProt Q96B02)
# Method: yeast two-hybrid
# Sample: yeast
# Notes: mostly zero background
# Baseline: not given
# Reading: higher = stronger interaction
# B1: Ltn1 RING domain (UniProt Q6A009); chain VDKRFEGVEDCMICFSVIHGFNYSLPKKACRTCKKKFHSACLYKWFTSSNKSTCPLCRETFF
# B2: PRKN RING domain (UniProt O60260); chain LIATNSRNITCITCTDVRSPVLVFQCNSRHVICLDCFHLYCVTRLNDRQFVHDPQLGYSLPCVAGCPNSLIKELHH
# B3: TRIM48 RING domain (UniProt Q8IWZ4); chain ISQVFQRELTCPICMNYFIDPVTIDCGHSFCRPCFYLNWQDIPILTQCFECIKTIQQRNLKT
# Construct (chain): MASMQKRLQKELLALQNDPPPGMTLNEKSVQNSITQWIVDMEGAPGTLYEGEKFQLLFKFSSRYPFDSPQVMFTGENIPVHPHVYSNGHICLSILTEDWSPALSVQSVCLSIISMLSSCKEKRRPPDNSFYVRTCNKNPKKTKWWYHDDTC
Sequence,lacZ reporter activity
B1 (Ltn1 RING domain),0
NTAPSLTVPECAICLQTCVHPVSLPCKHVFCYLCVKGASWLGKRCALCRQEIPEDFLDK (RNF146 RING domain (UniProt Q9NTX7)),0
B2 (PRKN RING domain),0
B3 (TRIM48 RING domain),0

# Series 2
# Target: CCNB2, cyclin fold, Cln2 fusion (human)
# Method: yeast growth competition, sequencing
# Sample: yeast
# Notes: strong parent motif
# Baseline: not given
# Reading: higher = stronger binding
# Parent: viral docking peptide; TSVRRALFTGGSD; partner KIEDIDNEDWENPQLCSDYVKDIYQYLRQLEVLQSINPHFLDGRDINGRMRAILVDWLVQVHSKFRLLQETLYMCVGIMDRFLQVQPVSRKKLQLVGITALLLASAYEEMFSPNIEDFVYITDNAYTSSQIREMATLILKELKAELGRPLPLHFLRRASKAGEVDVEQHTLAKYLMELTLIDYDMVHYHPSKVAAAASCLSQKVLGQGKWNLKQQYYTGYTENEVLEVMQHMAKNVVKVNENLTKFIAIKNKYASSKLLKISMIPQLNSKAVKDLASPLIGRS
Substitution,normalised enrichment score
F8H,0.667
A6T,0.973
V3Q,-0.188
G11W,0.812
R5K,0.782
R5W,0.329
R4T,0.05
G11H,0.673
A6G,0.49
G10D,1.08
R5T,-0.0611
R4C,0.0792
S2H,0.704
R5N,0.0617
S12M,0.728
T9S,0.709
V3I,1.44
T9I,0.573
R4W,0.0449
G11F,0.838
L7I,0.201
S2W,-0.118
A6C,0.672
L7R,0.622
R4M,0.186

# Series 3
# Target: HLA class I histocompatibility antigen, A alpha chain, allele A*25:01 (Homo sapiens, UniProt P04439)
# Read-out: peptide-MHC binding
# Molecule type: peptide
# Tested at: concentration not given
Sequence,binding
RRFTQAIYD,inactive
SQYDPKELL,inactive
FATPAFFLI,inactive
PLFKRGWRL,inactive
THADAHTQL,inactive

# Series 4
# Target: Centromere-binding protein 1, full length, N-terminal tag (CBF1, Saccharomyces cerevisiae, UniProt P17106, residues 1-351)
# Sequence of UniProt P17106 (whole entry, looked up): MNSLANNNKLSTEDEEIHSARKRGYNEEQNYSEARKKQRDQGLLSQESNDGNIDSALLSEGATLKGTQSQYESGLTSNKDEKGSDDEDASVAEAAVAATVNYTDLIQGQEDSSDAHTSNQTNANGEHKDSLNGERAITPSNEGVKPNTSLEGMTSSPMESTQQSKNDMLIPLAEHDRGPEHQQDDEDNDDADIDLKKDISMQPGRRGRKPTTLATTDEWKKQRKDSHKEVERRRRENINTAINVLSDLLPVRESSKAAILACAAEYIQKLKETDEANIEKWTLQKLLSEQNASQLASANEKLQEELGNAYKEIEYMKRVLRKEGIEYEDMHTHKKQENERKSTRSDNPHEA
# Method: protein-binding microarray
# Molecule type: double-stranded DNA, one strand shown
# Sample: in vitro
# Tested at: 0.8 µM
# Notes: whole 60-bp probe, no competitor
# Reading: higher = stronger binding
# All sequences stand within: … GTCTTGATTCGCTTGACGCTGCTG
Sequence,fluorescence intensity [a.u.]
CTATTAATAATGCTACAGGAGACCATAAGTGATTTC,560
GAACTCGTTATAAGTGACGTGCCTGTTAGGAAATAG,531
GAATTAATTGCCCACCACCTTCTTAAAACTGTTTAG,533
GAATATACACATTAGAGCATGACGATGAGTACTTAG,575
GAAAAATGAGAAAAAGTCATCAGGATAAAAGAATAG,543
CTAACTGATGAGTTCCACCTGCTTATTGTTTATTTC,536
GAAGGTAGCGATGGTGGTGGTAGTGGTGTATGCTAG,537
GAATAAGAAAAACATCTGATGTTGACTTAAATATAG,509

# Series 5
# Target: Sal-like protein 4, full length isoform B (SALL4, Homo sapiens, UniProt Q9UJQ4-2, residues 1-616)
# Method: universal PBM
# Molecule type: double-stranded DNA, one strand shown
# Sample: in vitro
# Tested at: not given
# Notes: 8-mer, flanks averaged, mean of replicates
# Reading: higher = stronger binding
# Residues (chain): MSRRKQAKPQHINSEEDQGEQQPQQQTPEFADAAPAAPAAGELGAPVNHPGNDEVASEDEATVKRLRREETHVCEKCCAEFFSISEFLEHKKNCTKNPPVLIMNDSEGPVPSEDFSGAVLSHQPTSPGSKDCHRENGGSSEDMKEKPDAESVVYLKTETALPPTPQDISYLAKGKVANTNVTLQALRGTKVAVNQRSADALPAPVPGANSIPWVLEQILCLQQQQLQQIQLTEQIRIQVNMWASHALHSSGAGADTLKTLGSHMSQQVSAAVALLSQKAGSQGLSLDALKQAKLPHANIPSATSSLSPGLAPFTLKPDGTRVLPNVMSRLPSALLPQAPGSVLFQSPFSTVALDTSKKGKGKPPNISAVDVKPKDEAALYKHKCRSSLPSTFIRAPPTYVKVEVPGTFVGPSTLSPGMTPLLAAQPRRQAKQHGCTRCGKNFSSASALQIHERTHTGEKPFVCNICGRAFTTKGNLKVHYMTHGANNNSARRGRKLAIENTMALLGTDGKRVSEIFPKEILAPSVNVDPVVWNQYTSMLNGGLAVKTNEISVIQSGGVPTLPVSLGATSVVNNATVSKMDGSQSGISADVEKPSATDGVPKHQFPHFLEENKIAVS
Sequence,E-score
TATACGGA,0.105
ACACTGCC,-0.0709
GCCCTTTA,-0.0693
ATAGGACA,-0.0329
AAACGAAG,0.0781
GAGCCTAC,-0.162
CGGCATAA,0.116
AAACCTCT,0.0147

# Other studies, line by line
# Method: two-hybrid
# Baseline: out of 4 tests
# Reading: higher = firmer interaction
# T1: itself; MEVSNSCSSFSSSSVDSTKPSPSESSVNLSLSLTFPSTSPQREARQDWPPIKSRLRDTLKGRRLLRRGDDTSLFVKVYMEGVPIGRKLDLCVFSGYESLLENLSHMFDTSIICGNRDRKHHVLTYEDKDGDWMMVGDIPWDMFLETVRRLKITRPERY
# T2: itself; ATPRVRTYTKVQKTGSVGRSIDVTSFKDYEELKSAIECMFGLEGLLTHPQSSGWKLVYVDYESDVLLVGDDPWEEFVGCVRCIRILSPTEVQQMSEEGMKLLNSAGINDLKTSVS
# T3: itself; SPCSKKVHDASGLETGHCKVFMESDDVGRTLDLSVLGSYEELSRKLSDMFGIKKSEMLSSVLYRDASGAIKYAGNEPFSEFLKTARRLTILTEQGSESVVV
# T4: itself; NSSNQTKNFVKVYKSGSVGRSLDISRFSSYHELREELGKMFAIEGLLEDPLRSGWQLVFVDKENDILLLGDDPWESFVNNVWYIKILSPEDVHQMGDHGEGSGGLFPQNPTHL
# B4: IAA31 (Arabidopsis thaliana, UniProt Q8H174); chain MEVSNSCSSFSSSSVDSTKPSPSESSVNLSLSLTFPSTSPQREARQDWPPIKSRLRDTLKGRRLLRRGDDTSLFVKVYMEGVPIGRKLDLCVFSGYESLLENLSHMFDTSIICGNRDRKHHVLTYEDKDGDWMMVGDIPWDMFLETVRRLKITRPERY
# B5: ARF5 788-902 (Arabidopsis thaliana, UniProt P93024); chain ATPRVRTYTKVQKTGSVGRSIDVTSFKDYEELKSAIECMFGLEGLLTHPQSSGWKLVYVDYESDVLLVGDDPWEEFVGCVRCIRILSPTEVQQMSEEGMKLLNSAGINDLKTSVS
# B6: ARF16 570-670 (Arabidopsis thaliana, UniProt Q93YR9); chain SPCSKKVHDASGLETGHCKVFMESDDVGRTLDLSVLGSYEELSRKLSDMFGIKKSEMLSSVLYRDASGAIKYAGNEPFSEFLKTARRLTILTEQGSESVVV
# B7: ARF8 699-811 (Arabidopsis thaliana, UniProt Q9FGV1); chain NSSNQTKNFVKVYKSGSVGRSLDISRFSSYHELREELGKMFAIEGLLEDPLRSGWQLVFVDKENDILLLGDDPWESFVNNVWYIKILSPEDVHQMGDHGEGSGGLFPQNPTHL
Sequence,partner,positive tests
B4 (IAA31),"T1, itself",2
B5 (ARF5 788-902),"T2, itself",0
B6 (ARF16 570-670),"T3, itself",0
B7 (ARF8 699-811),"T4, itself",0
